Measurements of several laboratories.
Each numbered part is a random draw from the data of one study; scales do not carry over between parts. Positions count from the first letter of the parent shown.

Set 1
Target: Interferon regulatory factor 7, full length, phosphomimetic (IRF7, Homo sapiens, UniProt Q92985, residues 1-503, S471D/S472D/S475D/S476D/S477D/S483D/S484D/S487D)
Chain of UniProt Q92985 (whole entry, unmodified, looked up): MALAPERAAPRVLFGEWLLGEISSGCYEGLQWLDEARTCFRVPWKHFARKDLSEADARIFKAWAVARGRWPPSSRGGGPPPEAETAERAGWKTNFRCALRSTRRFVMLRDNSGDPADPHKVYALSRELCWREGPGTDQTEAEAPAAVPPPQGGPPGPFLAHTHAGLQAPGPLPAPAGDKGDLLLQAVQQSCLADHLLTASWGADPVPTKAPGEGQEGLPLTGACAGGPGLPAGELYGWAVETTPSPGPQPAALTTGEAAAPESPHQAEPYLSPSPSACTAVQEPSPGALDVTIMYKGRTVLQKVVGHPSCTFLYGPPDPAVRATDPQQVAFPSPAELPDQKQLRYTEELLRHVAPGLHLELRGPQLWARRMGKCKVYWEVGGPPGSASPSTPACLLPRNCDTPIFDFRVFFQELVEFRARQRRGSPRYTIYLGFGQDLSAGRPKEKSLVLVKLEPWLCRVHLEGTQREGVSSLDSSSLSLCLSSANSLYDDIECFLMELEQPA
Technique: protein-binding microarray
Form: double-stranded DNA, one strand shown
Sample: in vitro
Concentration: 2200 nM top
Notes: 60-bp whole probe
Together with: salmon DNA 0.4 mg/ml
Relative to: random background probes
Direction: higher = stronger binding
Constant ends, left off below: GCCTAGCAC … GTCTTGATTCGCTTGACGCTGCTG
Sequence	fitted relative affinity
TTAGATCTCAGGTTCGATTAGTGCTAG	0.619 z-score
TTATAACTGAGACTGGATTAGTGCTAG	-0.321 z-score
TTAGGTCTCCTTTTCGTTTAGTGCTAG	3.32 z-score
AATTGTCTCTGTCCCTGTTTGTGCTAG	2.41 z-score
TCACTTCCCAATAATCTTACTGTGCTA	2.39 z-score
TCATCTTTCGATGCTAAAACTGTGCTA	1.98 z-score
TTAGATATCTTTTTCCTAATGTGCTAG	0.789 z-score
TCAATGTTCACTATTTAACTGTGCTAG	0.86 z-score
GACGGTTCCCTTTTCCGGACGTGCTAG	2.62 z-score
TTAGGACTGGGTATCGTTTAGTGCTAG	-0.12 z-score
GACGCTTTCGGGTTTCGGGACGTGCTA	10.5 z-score
GACGATCACAGTTTCGAGACGTGCTAG	2.92 z-score
GACGGTATCTTTCTCCTGACGTGCTAG	1 z-score
TCAGTTTCTATTTTCTGACTGTGCTAG	7.57 z-score
CCTAGCCTCCCAGCCCAGCAGTGCTAG	-0.82 z-score
GACGGTCTCGGTCACGGGACGTGCTAG	-0.456 z-score
CTCATGTTACATTTATATCTGTGCTAG	1.51 z-score
TCAAAACTCTTTATTTAACTGTGCTAG	-0.274 z-score
TCATTTTTTTTTTCATCACTGTGCTAG	2.41 z-score
GACGGTTTCCTACTGCTGGCGTGCTAG	1.97 z-score
GGGGTTAGGGTCATTCATTCGTGCTAG	-0.481 z-score
GGTCTTCTGGACTGTTTGGTCGTGCTA	0.529 z-score
TTAGATATCGGTTATCGATTAGTGCTA	0.334 z-score
GAGGGTTTCGGGTTTCGGGACGTGCTA	6.74 z-score
TTAGATTCCAGTTTCGATTTGTGCTAG	12.3 z-score

Set 2
Target: Ras GTPase-activating protein-binding protein 1, C-terminal RGG region (G3BP1, Homo sapiens, UniProt Q13283)
Chain of UniProt Q13283 (whole entry, looked up): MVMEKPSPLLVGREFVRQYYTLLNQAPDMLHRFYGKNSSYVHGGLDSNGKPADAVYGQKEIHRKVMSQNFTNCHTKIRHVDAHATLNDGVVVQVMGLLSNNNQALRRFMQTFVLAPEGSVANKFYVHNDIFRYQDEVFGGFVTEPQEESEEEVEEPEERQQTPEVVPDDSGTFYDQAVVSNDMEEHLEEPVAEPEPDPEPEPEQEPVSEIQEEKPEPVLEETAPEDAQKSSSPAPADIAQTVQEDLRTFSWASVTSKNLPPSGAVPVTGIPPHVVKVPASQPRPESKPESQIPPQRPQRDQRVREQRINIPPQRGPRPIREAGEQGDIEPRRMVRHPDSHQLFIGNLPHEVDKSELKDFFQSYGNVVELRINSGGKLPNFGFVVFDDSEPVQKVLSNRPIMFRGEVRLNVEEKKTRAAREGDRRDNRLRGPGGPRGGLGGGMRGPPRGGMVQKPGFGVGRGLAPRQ
Technique: RNA Bind-n-Seq
Form: RNA
Sample: in vitro
Concentration: 1 µM
Notes: whole 134-nt RNA, ends assumed
Together with: 150 mM KCl
Relative to: input library
Direction: higher = stronger binding
Constant ends, left off below: GGGAGUUCUACAGUCCGACGAUC … UGGAAUUCUCGGGUGUCAAGG
Sequence	log2 enrichment
UCAAGUCCUGUGCUACACAUCGUAUGUACCGAAUCGGUUUGGGUUUGGGUUUGGGAAAGUAUUAUGUUACGCCGUUCGGAUCUGCACUUC	-1.05
UCAAGUCCUGUGCUACACAUCGUAUGUACCGAAUCGGUUUGGUUUUUGGAAAGGAAAGUAUUAUGUUACGCCGUUCGGAUCUGCACUUCC	-1.26
UCCUGUGCUACACAUCGUAUGUACCGAAUCGGGGAAAAAGGGGAAAAAGGGAAAAAGGGAAAGUAUUAUGUUACGCCGUUCGGAUCUGCA	-0.356
CCUGUGCUACACAUCGUAUGUACCGAAUCGGGAAAAAAAGGGUUUUUGGGAAAAAAAGGGAAAGUAUUAUGUUACGCCGUUCGGAUCUGC	-1.92
UAACUUUAGAGGAGGAUCUGAUGGAUAUGGCAGUUGACGUGGAUUUGGGGAUGGCUAUAAUGGGUAUGGAGGAGGACCUGGAGGUGGCAA	-0.669
UAACUUUAGAGGAGGAUCUGAUGGAUAUGGCAGUGGACGUGGAUUUGGGGAUGGCUAUAAUGCGUAUGGAGGAGGACCUGGAGGUGGCAA	-0.568
CUGUGCUACACAUCGUAUGUACCGAAUCGGGAAAAAAAGGAAAAAAAGGGGAAAAAAAGGGGAAAGUAUUAUGUUACGCCGUUCGGAUCU	-1.02
UGGCCCUGGUGGCAUGCGGGGAGGAAGAGGUGGCUUCAUGGAUCGUGGUGGUCCCGGUGGAAUGUUCAGAGGUGGCCGUGGUGGAGACAG	2.14
AAGUCCUGUGCUACACAUCGUAUGUACCGAAUCGGGAGGGUUUGGGUUUUUUUGGGAAAGUAUUAUGUUACGCCGUUCGGAUCUGCACUU	0.517
UAUCAGGAGGGCAGACUUCAAAAGCUACUAAAAAUGAACGGCCCUGAAGAUCUUCCCAAGUCCUAUGACUAUGACCUUAUCAUCAUUGGA	-1.92
CCUGUGCUACACAUCGUAUGUACCGAAUCGGGAAAAAAAGGAAAAAAAGGAAAAAAAGGGAAAGUAUUAUGUUACGCCGUUCGGAUCUGC	-1.99
UCCUGUGCUACACAUCGUAUGUACCGAAUCGGGAAAAAAGGGAAAAAAGGGGAAAAAAGGAAAGUAUUAUGUUACGCCGUUCGGAUCUGC	-1.36
CCUCAAGUCCUGUGCUACACAUCGUAUGUACCGAAUCGGAAGGAAGGAAGGGGAAAGUAUUAUGUUACGCCGUUCGGAUCUGCACUUCCA	-1.36
UAACUUUAGAGGAGGAUCUGAUGGAUAUGGCAGUGGACGUGGAUUUGGGGAUGGCUAUAAUGGGUAUGGAGGAUGACCUGGAGGUGGCAA	-1.26

Set 3
Target: Histone acetyltransferase KAT6A, both winged helices, GST fusion (KAT6A, Homo sapiens, UniProt Q92794, residues 1-181)
Technique: protein binding microarray
Form: double-stranded DNA, one strand shown
Sample: in vitro
Concentration: not given
Notes: 8-mer, flanks averaged, mean of 2 arrays, mostly near background
Relative to: not given
Direction: higher = stronger binding
Construct (chain): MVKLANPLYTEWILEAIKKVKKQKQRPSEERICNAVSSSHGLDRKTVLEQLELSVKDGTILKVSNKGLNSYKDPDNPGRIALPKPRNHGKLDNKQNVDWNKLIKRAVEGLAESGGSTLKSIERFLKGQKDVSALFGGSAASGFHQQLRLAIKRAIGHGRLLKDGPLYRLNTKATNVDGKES
Sequence	E-score
AGGACCCC	-0.0731
CTTACAAC	-0.119
AATTCGGA	0.0742
AATGTGGT	-0.11
GGACGGGA	0.223
CTACGGAC	0.236
AGTAGTCC	-0.00859
ATTTTACC	-0.0264
CCCGACGA	0.0979
AAGCCACT	-0.25
CATCCCCG	0.182
TGTGAGAA	-0.143
ACGCGCCG	0.324
GAAGCGAC	0.0525
CCTTAAAG	-0.175
ACTTAAAT	-0.239
CCGGTCCG	0.277
GTGAACAA	-0.0239
AATTCCCG	0.232

Set 4
Target: CCNA2, cyclin fold, Cln2 fusion (human)
Technique: yeast growth competition, sequencing
Sample: yeast
Notes: weak parent motif
Relative to: not given
Direction: higher = stronger binding
Parent: DBF4 docking peptide (human); DDIVSKLVFDFVE
Change	normalised enrichment score
K6A	-0.626
D10A	-0.213
E13A	-0.366
D1A	-0.315
V12A	-0.197
S5A	-0.688
V8A	-0.728

Set 5
Target: MAFK, bZIP domain (human)
Technique: DHFR protein complementation
Sample: yeast
Notes: single substitutions, most at no-binding floor
Relative to: wild-type JUN-FOS pair
Direction: higher = stronger binding
Parent: JUN, bZIP domain (human); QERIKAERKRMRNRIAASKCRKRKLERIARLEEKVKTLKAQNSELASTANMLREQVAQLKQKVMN; partner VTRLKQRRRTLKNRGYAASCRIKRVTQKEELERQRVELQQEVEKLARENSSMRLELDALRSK
Change	binding fitness [natural log]
V35P	-1.52
T37V	-1.43
A40Y	-1.49
A57L	-1.53
L38R	-1.51
V35R	-1.39
T37H	-1.49
L59H	-1.53
L31M	-1.32
K36P	-1.48
L52W	-1.39
V56D	-1.48
I28K	-1.51
L38A	-1.46
V56M	-1.45
T37K	-1.45
E33N	-1.46
A29I	-1.5
E44R	-1.38
K34N	-1.51
L45I	-1.48
A49D	-1.47
A57Y	-1.45
A29Y	-1.22
A29G	-1.48

Set 6
Target: Sal-like protein 4, full length isoform A (SALL4, Homo sapiens, UniProt Q9UJQ4, residues 1-1053)
Chain of UniProt Q9UJQ4 (whole entry, looked up): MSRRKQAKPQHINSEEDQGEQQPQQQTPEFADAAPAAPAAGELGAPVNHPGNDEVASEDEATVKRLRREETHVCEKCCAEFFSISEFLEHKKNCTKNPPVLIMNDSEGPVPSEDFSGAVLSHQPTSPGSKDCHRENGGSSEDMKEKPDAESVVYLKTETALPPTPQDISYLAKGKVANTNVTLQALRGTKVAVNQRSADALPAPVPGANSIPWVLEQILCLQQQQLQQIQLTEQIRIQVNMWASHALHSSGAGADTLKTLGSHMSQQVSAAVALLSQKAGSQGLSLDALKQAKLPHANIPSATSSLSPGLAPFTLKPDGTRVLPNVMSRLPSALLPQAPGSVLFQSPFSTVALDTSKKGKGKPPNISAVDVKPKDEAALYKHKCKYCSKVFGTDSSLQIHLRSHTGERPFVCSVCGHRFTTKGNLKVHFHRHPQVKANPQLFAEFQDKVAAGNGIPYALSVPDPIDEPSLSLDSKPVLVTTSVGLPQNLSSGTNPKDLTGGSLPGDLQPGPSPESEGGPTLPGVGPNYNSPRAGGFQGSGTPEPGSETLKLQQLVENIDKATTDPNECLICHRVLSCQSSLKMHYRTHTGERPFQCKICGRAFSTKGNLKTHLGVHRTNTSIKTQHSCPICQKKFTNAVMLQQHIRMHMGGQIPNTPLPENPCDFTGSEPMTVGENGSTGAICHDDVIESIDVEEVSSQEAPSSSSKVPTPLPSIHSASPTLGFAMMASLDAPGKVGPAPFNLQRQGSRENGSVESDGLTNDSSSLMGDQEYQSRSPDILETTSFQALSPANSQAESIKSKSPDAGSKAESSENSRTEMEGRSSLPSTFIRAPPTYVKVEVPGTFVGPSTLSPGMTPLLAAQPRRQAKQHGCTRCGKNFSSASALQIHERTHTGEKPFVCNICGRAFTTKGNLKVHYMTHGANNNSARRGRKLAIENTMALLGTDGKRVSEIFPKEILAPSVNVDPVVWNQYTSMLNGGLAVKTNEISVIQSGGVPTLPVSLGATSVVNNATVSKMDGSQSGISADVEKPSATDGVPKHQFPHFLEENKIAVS
Technique: universal PBM
Form: double-stranded DNA, one strand shown
Sample: in vitro
Concentration: 600 nM
Notes: 8-mer, flanks averaged, mean of replicates
Direction: higher = stronger binding
Sequence	E-score
CGGCCTCA	-0.236
CTTACAGA	-0.0335
CAGGGAAG	-0.28
CCCAGCCC	-0.342
GATGTGGC	-0.137
CCGAGGCC	-0.386
ACTTCCTG	-0.0523
CCCCCGCA	-0.192
AATGGATC	-0.0773
ACAAATAC	0.208
AGCACAAG	-0.0229
AGCCTGAC	-0.237
GACCCCGC	-0.283
ATCGGCCC	-0.251
ATCCCCTG	-0.163
CACGGGCA	-0.274
GTAAGTCA	0.113
CCGACTAC	-0.185
CCCGGATA	-0.179
CCCATCCA	-0.0878
GCGTGATA	0.0411
GTGTTTGA	0.169
AGCTGCGA	-0.138
GACTCGGC	-0.322
ATCAATGA	0.257

Further values, each from its own experiment
Substance	target	assay	system	setting	how to read	endpoint	result
PhoQ, residues 284 288 289 292 302 303 SQSLSM	PhoP, residues 12 14 15 18 19 SYFRT (Escherichia coli, UniProt P23836)	Sort-seq, refers to: YFP reporter	E. coli	PhoQ-PhoP variant library, together with: 10 µM Mg2+	relative to: high Mg2+ state, higher = stronger signaling	fold induction	0.944

A few entries again (set 1):
Sequence	fitted relative affinity
TCATCTTTCGATGCTAAAACTGTGCTA	1.98 z-score
TTAGATATCTTTTTCCTAATGTGCTAG	0.789 z-score
TCAATGTTCACTATTTAACTGTGCTAG	0.86 z-score
GACGGTTCCCTTTTCCGGACGTGCTAG	2.62 z-score
TTAGGACTGGGTATCGTTTAGTGCTAG	-0.12 z-score
GACGCTTTCGGGTTTCGGGACGTGCTA	10.5 z-score
GACGATCACAGTTTCGAGACGTGCTAG	2.92 z-score
GACGGTATCTTTCTCCTGACGTGCTAG	1 z-score
TCAGTTTCTATTTTCTGACTGTGCTAG	7.57 z-score
CCTAGCCTCCCAGCCCAGCAGTGCTAG	-0.82 z-score
GACGGTCTCGGTCACGGGACGTGCTAG	-0.456 z-score
CTCATGTTACATTTATATCTGTGCTAG	1.51 z-score
TCAAAACTCTTTATTTAACTGTGCTAG	-0.274 z-score
TCATTTTTTTTTTCATCACTGTGCTAG	2.41 z-score
GACGGTTTCCTACTGCTGGCGTGCTAG	1.97 z-score
